Measurements of several laboratories.
Each numbered part is a random draw from the data of one study; scales do not carry over between parts. Positions count from the first letter of the parent shown.

Study 1 — method: RNA Bind-n-Seq; molecule type: RNA; sample: in vitro; concentration: not given; notes: RNA with constant flanks, ends assumed; reference: input RNA pool; reading: higher = stronger binding
Target: RING finger protein unkempt homolog, zinc fingers 1-6, GST-SBP tag (UNK, Homo sapiens, UniProt Q9C0B0, residues 30-357)
All sequences stand within: GGGAGUUCUACAGUCCGACGAUC … CAACAGAGGAUUGAGCAUCA
Construct (chain): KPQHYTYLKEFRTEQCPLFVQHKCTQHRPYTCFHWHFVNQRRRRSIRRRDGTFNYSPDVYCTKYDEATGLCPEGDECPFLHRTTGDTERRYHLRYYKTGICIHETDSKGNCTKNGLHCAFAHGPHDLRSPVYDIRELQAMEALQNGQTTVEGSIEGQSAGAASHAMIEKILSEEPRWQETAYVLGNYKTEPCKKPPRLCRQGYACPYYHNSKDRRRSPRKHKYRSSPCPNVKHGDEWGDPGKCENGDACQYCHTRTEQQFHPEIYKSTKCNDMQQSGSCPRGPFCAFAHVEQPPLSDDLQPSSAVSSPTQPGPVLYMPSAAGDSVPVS
Oligonucleotide	bound/input enrichment
UCCUCAACUAGAGAACAUGUUCAAAAGAAAGCUGCAGAAUGGAAAAUCAAGAUAGAUAUUACCGCAGAACUUCGAUAUGACCUGCCAGCAUCAUACAAGUUUCACAAAAAGAAAUCAGUG	2.21 ratio
GCAUUUAUCUUUUUUCCUAGUUUUUCUAAUACUAAUGUUAUUUCUUAAAAUUCAGUGAGAUACCGGAUAAAAUAAUGCUUUGAGAAGAAUGUUUAAUAGAAAAUUAAAAUAACUUUUUCU	2.33 ratio
AAGAGGAAGCUAAUUGUUGACAGUGUCAAAGAGUUGGAUAGCAAGACAAUUAGAGCCCAACUCCGUGAUUAUUCAGAUAUUGUUACUACUUUGGAUCUGGCACCGCCCACCAAGAAAUUG	0.23 ratio
AGGCGCAAAGCAGCAAAUGUCACGUUACUCACCUCCCUGGUGGAAGGAGAAGCUGUUCACUCCGCCCGGGAUUUUGGGUACAUUUGCGAAACGGAGUUUCCCGCCAAAGCCGUCUCUGAG	0.0641 ratio
UGUGGAAGUGCCCCGUGUUUGCUAUGCCGAUGCUGUCCUAGUGGAAACAACUCCACUGUAACCCGAUUGAUCUAUGCACUUUUCUUGCUUGUUGGAGUAUGUGUAGCUUGUGUAAUGUUG	0.195 ratio
GUAAAACUGGUACUUCCAAAGACCAAGUUUUCAAUGGUAUUACCAGAAGUAGAAGCGGCAUCCGCAGAGAUUCCCGGAGUCAGGAGUGUUGUAUUAUUUGGAGUAGAAACUCAUGUGUGC	0.517 ratio
AGUGAAAAUAUUUCUGCAGCUAUCCAAGCUAAUGGUGAAAUGGUUACAAAGCAACCAUUGAUCCGAAGUAUGCGAACUGUAAAAAGGGAAACUUUAAAGUUAAUAUCUGGUUGGGUGAGC	0.216 ratio
UAUUUAAUAUCACCUCUAGAUUUUGUACCUGAAGCCUUGUUUGGAAUUCUGGGCUUUCCCGAUGAUUUCUUUGUUAUCUUUUUGUUGCUUAUUUACAUCUCCAUUAUGUAUCGAGAAGUG	1.62 ratio
AAGAGGAAGCUGAUUGUUGACAGUGUCAAAGAAUUGGAUAGUAAGACCAUUAGAGCCCAGCUCCGCGAUUAUUCUGAUAUUGUUACGACUCUGGACCUGGCUCCGCCAACCAAGAAGCUU	0.105 ratio
UGUGGCUUUAACAUUUUAUGCAACUAUUUAUGAAGACCUCUGUUGUACCUGUAAUAAAUAUACCGAAAAAGCACAUACUUCGUAUGGUGAGCUUUAUGGUUUUGUGUGUGUGUUGGGGUU	0.45 ratio
GUUUACAUCUUUGGUGAUGGACGAGGCCUUAUUGAAGGAAAUGACAUUUAUGGCAAUGCAUCCGCAGGAAUUCAAAUUAGGACAAACAGUUGUCCAAUUGUUCGGCAUAACAAAAUUCAU	0.204 ratio

Study 2 — method: RNA Bind-n-Seq; molecule type: RNA; sample: in vitro; concentration: 200 nM; notes: whole 134-nt RNA, ends assumed; added: 150 mM KCl; reference: input library; reading: higher = stronger binding
Target: Fragile X messenger ribonucleoprotein 1, C-terminal low-complexity region (Fmr1, Mus musculus, UniProt P35922)
All sequences stand within: GGGAGUUCUACAGUCCGACGAUC … UGGAAUUCUCGGGUGUCAAGG
Oligonucleotide	log2 enrichment
CCUCAAGUCCUGUGCUACACAUCGUAUGUACCGAAUCGGGGCGGCGGGGCGGAAAGUAUUAUGUUACGCCGUUCGGAUCUGCACUUCCAG	0.342
CUGUGCUACACAUCGUAUGUACCGAAUCGGGGCCCCCCCGGGGCCCCCCCGGCCCCCCCGGAAAGUAUUAUGUUACGCCGUUCGGAUCUG	-0.916
CAAGUCCUGUGCUACACAUCGUAUGUACCGAAUCGGGGUGGGGUGGGGAAAGGGGAAAGUAUUAUGUUACGCCGUUCGGAUCUGCACUUC	1.2
UGGCCCUGGUGGCAUGCGGGGAGGAAGAGGUGGCCUCAUCGAUCGUGGUGGUCCCGGUGGAAUGUUCAGAGGUGGCCGUGGUGGAGACAG	0.0365
CUCAAGUCCUGUGCUACACAUCGUAUGUACCGAAUCGGGUUGGGUUGGUUGGGAAAGUAUUAUGUUACGCCGUUCGGAUCUGCACUUCCA	1.07
GUCCUGUGCUACACAUCGUAUGUACCGAAUCGGGGUUUGGGGUUUUUGGGGAAAGGGGAAAGUAUUAUGUUACGCCGUUCGGAUCUGCAC	0.877
UAGUAACAGGGGUGAAGAUGCCUUUUGUGAUCCUGAAGAUGAAUGGGAACCCGACAUUACAGAUGCACCAGUUUCUUCACUUUCUAGAAG	-1.68
UCCUGUGCUACACAUCGUAUGUACCGAAUCGGGGAAAAAGGGGUUUGGGGUUUUUGGGGAAAGUAUUAUGUUACGCCGUUCGGAUCUGCA	0.688
CACAGACAACACGCACCCACACAGACACAGAGGGAAGGGGUUGGGAUGGGGACAGGGUGCACAGCAGGGCGGAGUAGGACCCCAGCCCCU	1.2
GCAGGAAGUAAAAAGAAAUGGAAAUGCUUCGGAUAGUGGCAGGGGUGGGGGUUGCUAAGGAAAGGGUGGGAUGGGAGUGGGUAAAGAGUU	0.0776

Study 3 — method: universal PBM; molecule type: double-stranded DNA, one strand shown; sample: in vitro; concentration: 600 nM; reading: higher = stronger binding
Target: Sal-like protein 4, full length isoform A (SALL4, Homo sapiens, UniProt Q9UJQ4, residues 1-1053)
UniProt Q9UJQ4, sequence (whole entry, looked up): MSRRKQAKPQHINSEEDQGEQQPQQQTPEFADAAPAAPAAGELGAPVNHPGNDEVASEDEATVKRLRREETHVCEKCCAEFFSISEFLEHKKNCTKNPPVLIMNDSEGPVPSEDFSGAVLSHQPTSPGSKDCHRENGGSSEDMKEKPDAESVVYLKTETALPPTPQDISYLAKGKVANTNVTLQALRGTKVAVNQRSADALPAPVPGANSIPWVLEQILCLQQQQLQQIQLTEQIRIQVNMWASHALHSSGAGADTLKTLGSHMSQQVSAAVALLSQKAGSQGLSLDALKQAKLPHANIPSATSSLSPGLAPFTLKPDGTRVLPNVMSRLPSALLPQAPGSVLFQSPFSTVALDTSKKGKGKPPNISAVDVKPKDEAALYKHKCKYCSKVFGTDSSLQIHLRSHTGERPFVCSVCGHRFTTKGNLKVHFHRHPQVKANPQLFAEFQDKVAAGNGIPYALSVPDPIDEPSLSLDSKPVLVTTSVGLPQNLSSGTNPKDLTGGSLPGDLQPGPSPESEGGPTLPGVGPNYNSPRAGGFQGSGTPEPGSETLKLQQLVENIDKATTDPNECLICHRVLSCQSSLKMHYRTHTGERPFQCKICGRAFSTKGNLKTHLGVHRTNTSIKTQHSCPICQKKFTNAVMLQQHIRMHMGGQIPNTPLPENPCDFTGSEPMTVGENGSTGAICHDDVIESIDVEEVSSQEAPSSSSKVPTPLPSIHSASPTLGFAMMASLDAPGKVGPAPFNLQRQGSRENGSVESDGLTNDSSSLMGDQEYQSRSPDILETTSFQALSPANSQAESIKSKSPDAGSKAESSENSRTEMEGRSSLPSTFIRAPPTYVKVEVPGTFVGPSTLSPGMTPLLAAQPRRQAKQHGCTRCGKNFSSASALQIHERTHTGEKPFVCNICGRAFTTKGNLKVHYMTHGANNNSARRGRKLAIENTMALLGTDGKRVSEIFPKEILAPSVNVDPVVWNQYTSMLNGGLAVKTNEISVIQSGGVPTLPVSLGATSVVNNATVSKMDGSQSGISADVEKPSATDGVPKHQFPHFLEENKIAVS
Notes: 8-mer, flanks averaged, mean of replicates
Oligonucleotide	E-score
ATGAATCA	0.231
CTTGCTTC	0.0229
TACCGATA	0.121
CACACCTG	-0.0952
AATCGCCA	-0.039
AATTTGGG	0.166
CAATCAAG	0.0287
GCTGACCA	-0.189
AGGCTCGA	-0.0402
AGCACCAG	-0.129
ACGGGCAA	-0.073
AACTTGAT	0.292
GCGCCAGC	-0.272
GACACCTC	-0.243
CCACCCGA	-0.213
CCACCGTA	-0.117
CTGCTATA	0.0959
CGCTACGC	-0.225
CCTATAGC	0.0976
CATATGCG	0.127
CTTATGGA	0.171
CGCGGTGA	-0.294
CACAGGCG	-0.192
CGACGACC	-0.144

Study 4 — method: DHFR PCA, deep sequencing; sample: yeast; added: (+)-ABA 0.39 µM; reference: wild-type fitted maximum; reading: higher = stronger binding
Target: ABI1, truncated, D143A, DHFR fusion (Arabidopsis thaliana)
Notes: methotrexate growth selection, single substitutions
Starting sequence: PYL1, truncated, DHFR fusion (Arabidopsis thaliana); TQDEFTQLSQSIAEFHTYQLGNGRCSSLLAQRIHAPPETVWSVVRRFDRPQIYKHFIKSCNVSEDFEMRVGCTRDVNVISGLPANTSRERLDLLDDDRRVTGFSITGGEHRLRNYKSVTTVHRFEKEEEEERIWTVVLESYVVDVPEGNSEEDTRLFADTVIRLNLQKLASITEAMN; partner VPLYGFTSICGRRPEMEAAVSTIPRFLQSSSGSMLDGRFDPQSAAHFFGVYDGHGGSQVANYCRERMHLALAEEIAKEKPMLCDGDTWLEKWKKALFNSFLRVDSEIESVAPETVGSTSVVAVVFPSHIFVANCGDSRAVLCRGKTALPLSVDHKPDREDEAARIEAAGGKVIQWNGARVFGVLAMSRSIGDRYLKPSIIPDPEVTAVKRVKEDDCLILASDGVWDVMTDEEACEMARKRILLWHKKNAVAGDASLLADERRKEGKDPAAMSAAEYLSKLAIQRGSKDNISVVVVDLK
Variant	relative binding score [%]
R32N	-0.758
T86D	14.7
F56E	-5.33
L112W	15.2
A84K	2.18
C25R	-7.09
V78L	72.8
K168F	-5.75
S171D	56.1
A175Y	-9.97
S9G	38.1
F47V	-4.46
Q167A	52.6
R163T	44.8
T173H	-6.3
G107T	-3.57

A few entries again (study 4):
Variant	relative binding score [%]
R32N	-0.758
T86D	14.7
F56E	-5.33
L112W	15.2
A84K	2.18
C25R	-7.09
